Results gathered from unrelated publications.
Protocols differ between the studies behind these lines. ± gives the spread as reported.
Target: Sodium-dependent serotonin transporter (SLC6A4, Homo sapiens, UniProt P31645)
Sequence of UniProt P31645 (whole entry, looked up): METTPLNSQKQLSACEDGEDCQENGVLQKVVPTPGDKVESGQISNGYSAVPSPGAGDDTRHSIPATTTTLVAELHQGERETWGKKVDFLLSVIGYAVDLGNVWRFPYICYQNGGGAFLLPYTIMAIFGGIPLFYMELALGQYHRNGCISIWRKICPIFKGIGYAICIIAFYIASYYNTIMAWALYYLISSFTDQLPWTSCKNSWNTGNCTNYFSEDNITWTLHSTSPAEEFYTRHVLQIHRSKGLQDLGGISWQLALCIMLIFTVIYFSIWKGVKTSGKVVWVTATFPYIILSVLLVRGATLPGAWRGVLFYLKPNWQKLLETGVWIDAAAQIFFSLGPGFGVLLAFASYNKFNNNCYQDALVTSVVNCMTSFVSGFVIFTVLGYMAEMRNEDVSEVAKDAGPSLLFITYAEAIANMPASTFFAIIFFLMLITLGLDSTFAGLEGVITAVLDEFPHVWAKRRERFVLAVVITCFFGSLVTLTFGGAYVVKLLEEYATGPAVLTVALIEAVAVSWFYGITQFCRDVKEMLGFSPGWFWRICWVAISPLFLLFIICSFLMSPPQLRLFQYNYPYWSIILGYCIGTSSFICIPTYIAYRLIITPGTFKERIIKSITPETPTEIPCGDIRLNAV

With COC(=O)[C@H]1[C@@H](OC(=O)c2ccccc2)C[C@@H]2CC[C@H]1N2C the Hill coefficient was -1.12 ± 0.1 (binding).
CC(C)CC(=O)OC[C@H]1O[C@@](C#N)(c2ccc3c(N)ncnn23)[C@H](O)[C@@H]1O gave an inhibition of 15% (20 µM).
For NCCc1c[nH]c2ccc(O)cc12, the Emax was 94% (steady-state current, whole-cell patch clamp; HEK293; 10 µM).
CCCC[C@@H](NC(=O)[C@@H](N)Cc1ccc(O)cc1)C(=O)NCC(=O)N[C@@H](Cc1ccc(F)cc1)C(=O)N(C)CCC[C@@]1(c2ccc(F)cc2)OCc2cc(C#N)ccc21 gave an inhibition of less than 50% (10 µM).
With CCN(CC)CCCC[C@H](NC(=O)[C@H](CC(C)C)NC(=O)[C@H](C)NC(=O)[C@H](Cc1ccccc1)NC(=O)c1ccc(C(C)(C)C)cc1)C(=O)N[C@@H](CO)C(=O)OC the specific binding was 94.9% (antagonist, radioligand binding; 10 µM; baseline: control binding).
For c1cncc([C@@H]2CCCN2)c1, the inhibition was -16.5% (binding; 50 µM, mean).
The radioligand binding of Nc1ncc(-c2nc(N3CCOCC3)nc(N3CCOCC3)n2)c(C(F)F)n1 is reported as 94% (10 µM, together with: antagonist radioligand).
For O=C(Nc1cccnn1)N1CCC(=Cc2cccc(Oc3ccc(C(F)(F)F)cn3)c2)CC1, the inhibition was 21% (radioligand binding, inhibitor; 10 µM, human, together with: [3H]paroxetine).
With Cc1cc(O)cc(C)c1C[C@H](N)C(=O)N[C@H](C)C(=O)NCC(=O)N[C@@H](Cc1ccc(Cl)cc1)C(=O)N(C)CCC[C@@]1(c2ccc(F)cc2)OCc2cc(C#N)ccc21 the inhibition was less than 50% (10 µM).
With Cn1cccc1-c1cccnc1 the inhibition was -14% (binding; 50 µM).
O=C(Nc1cnccc1Cl)N1CCN(Cc2ccc3c(c2)OC(F)(F)O3)CC1 has an inhibition of 10% (radioligand binding, inhibitor; 10 µM, human, together with: [3H]paroxetine).

A few entries again:
For O=C(Nc1cccnn1)N1CCC(=Cc2cccc(Oc3ccc(C(F)(F)F)cn3)c2)CC1, the inhibition was 21% (radioligand binding, inhibitor; 10 µM, human, together with: [3H]paroxetine).
